Measurements gathered from unrelated publications.
Numbered parts are unrelated; each lists some results of a single study. “And” joins repeats or separate records; there may be more than shown.
Sequence of UniProt P10721 (whole entry, unmodified, looked up): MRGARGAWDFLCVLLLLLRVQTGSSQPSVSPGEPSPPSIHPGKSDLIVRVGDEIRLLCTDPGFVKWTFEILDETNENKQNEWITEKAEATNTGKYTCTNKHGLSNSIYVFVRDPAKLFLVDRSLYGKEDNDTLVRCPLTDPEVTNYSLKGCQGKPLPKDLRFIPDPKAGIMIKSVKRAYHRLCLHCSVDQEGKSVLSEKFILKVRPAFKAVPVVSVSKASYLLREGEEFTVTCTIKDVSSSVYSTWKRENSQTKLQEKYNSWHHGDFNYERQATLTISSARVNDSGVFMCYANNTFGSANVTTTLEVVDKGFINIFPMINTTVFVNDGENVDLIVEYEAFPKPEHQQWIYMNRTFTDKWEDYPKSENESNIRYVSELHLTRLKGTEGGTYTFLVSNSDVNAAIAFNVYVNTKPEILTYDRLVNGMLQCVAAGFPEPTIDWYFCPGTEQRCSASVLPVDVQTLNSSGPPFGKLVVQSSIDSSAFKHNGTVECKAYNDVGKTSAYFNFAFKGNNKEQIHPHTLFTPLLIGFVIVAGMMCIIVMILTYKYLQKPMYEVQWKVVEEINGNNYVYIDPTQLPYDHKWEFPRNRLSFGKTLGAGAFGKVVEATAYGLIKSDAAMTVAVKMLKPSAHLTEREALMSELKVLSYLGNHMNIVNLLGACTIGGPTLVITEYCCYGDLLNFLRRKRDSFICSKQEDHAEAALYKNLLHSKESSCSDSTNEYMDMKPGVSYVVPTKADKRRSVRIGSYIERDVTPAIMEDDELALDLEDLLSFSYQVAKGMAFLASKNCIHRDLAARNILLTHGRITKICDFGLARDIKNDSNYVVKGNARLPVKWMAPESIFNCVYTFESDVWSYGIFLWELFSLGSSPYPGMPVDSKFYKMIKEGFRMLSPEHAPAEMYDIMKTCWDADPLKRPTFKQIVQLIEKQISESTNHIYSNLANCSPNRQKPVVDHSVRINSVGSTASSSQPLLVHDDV
Sequence of UniProt P42336 (whole entry, unmodified, looked up): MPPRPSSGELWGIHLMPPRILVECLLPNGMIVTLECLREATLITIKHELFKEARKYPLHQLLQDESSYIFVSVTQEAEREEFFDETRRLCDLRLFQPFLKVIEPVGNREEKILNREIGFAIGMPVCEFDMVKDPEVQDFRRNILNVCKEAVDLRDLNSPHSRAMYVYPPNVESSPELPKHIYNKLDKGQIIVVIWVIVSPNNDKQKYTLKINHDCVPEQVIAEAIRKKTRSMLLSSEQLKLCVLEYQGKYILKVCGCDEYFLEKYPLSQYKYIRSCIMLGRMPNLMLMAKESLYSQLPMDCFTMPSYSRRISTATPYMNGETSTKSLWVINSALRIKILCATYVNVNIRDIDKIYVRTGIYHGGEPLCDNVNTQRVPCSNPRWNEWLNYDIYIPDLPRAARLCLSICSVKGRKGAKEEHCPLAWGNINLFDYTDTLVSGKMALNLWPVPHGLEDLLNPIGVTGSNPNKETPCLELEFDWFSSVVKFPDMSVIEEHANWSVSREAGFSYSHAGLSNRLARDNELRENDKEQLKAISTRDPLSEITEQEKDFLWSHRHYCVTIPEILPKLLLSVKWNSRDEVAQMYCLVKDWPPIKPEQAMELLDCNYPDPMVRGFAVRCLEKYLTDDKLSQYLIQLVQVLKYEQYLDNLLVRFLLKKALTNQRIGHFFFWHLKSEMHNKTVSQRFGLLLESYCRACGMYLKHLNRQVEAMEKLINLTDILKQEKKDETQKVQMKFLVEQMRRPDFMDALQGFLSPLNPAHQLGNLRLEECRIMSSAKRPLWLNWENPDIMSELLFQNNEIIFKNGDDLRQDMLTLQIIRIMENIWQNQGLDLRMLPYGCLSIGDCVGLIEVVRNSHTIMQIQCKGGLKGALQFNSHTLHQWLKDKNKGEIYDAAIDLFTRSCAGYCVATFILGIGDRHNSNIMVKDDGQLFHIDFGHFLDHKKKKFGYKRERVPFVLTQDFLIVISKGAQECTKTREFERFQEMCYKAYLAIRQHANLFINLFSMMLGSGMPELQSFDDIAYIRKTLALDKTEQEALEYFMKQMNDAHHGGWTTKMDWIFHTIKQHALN
Sequence of UniProt P19784 (whole entry, looked up): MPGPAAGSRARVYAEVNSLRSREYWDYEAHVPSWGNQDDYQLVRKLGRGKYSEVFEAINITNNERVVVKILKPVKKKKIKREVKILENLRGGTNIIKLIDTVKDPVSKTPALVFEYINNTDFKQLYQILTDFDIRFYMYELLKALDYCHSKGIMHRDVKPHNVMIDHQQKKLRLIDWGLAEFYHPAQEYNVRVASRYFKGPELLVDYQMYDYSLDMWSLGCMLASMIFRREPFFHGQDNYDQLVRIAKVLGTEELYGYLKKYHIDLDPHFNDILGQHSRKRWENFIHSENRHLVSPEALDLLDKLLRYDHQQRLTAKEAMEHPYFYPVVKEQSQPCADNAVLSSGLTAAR

Study 1
Structure (SMILES): CO[C@@H]1[C@H](N(C)C(=O)c2ccccc2)C[C@H]2O[C@]1(C)n1c3ccccc3c3c4c(c5c6ccccc6n2c5c31)C(=O)NC4
Read-out: enzyme activity
Mode: inhibitor
Tested at: 1 µM
Quantity: inhibition
MAPK15 (Homo sapiens, UniProt Q8TD08): 1%
PIK3CA (Homo sapiens, UniProt P42336, E542K): 32%
CILK1 (Homo sapiens, UniProt Q9UPZ9): 12%
DMPK (Homo sapiens, UniProt Q09013): 0%
CASK (Homo sapiens, UniProt O14936): 18%
MAPK9 (Homo sapiens, UniProt P45984): 5%
CDK3 (Homo sapiens, UniProt Q00526): 0%
MAP3K6 (Homo sapiens, UniProt O95382): 34%
KIT (Homo sapiens, UniProt P10721): 92%

Study 2
Compound: CCOC(=O)c1cc2cc(-c3cc(C(=O)NCc4ccc(C(=O)O)cc4)nn3C)ccc2[nH]1
Read-out: cell-free assay
Method: competition with immobilised ligand
Tested at: 0.1 µM
Quantity: remaining binding
CSNK2A2 (Homo sapiens, UniProt P19784): 87%
GSK3B (Homo sapiens, UniProt P49841): 95%
PRKACB (Homo sapiens, UniProt P22694): 86%
DCLK3 (Homo sapiens, UniProt Q9C098): 73%
MAPK8 (Homo sapiens, UniProt P45983): 96%
FRK (Homo sapiens, UniProt P42685): 100%
ROS1 (Homo sapiens, UniProt P08922): 97%
MAP3K13 (Homo sapiens, UniProt O43283): 74%
COQ8B (Homo sapiens, UniProt Q96D53): 100%
PRKD1 (Homo sapiens, UniProt Q15139): 75%
EGFR (Homo sapiens, UniProt P00533, del747-752/P753S): 100%
PIK3CA (Homo sapiens, UniProt P42336, Q546K): 95%
TYRO3 (Homo sapiens, UniProt Q06418): 100%
PIP5K1A (Homo sapiens, UniProt Q99755): 100%
CHEK1 (Homo sapiens, UniProt O14757): 100%
CDK7 (Homo sapiens, UniProt P50613): 76%
EPHA6 (Homo sapiens, UniProt Q9UF33): 94%
CDK5 (Homo sapiens, UniProt Q00535): 94%
ACVR1 (Homo sapiens, UniProt Q04771): 84%
PIP5K1C (Homo sapiens, UniProt O60331): 100%
PHKG1 (Homo sapiens, UniProt Q16816): 100%
HIPK1 (Homo sapiens, UniProt Q86Z02): 91%
MARK1 (Homo sapiens, UniProt Q9P0L2): 76%
KIT (Homo sapiens, UniProt P10721, V559D/V654A): 100%
PLK2 (Homo sapiens, UniProt Q9NYY3): 80%

Study 3
Structure (SMILES): Cc1ccc(NC(=O)c2ccnc(C(F)(F)F)c2)cc1-c1cc(OCCO)nc(N2CCOCC2)c1
Tested at: 1 µM
Quantity: remaining binding
NEK5 (Homo sapiens, UniProt Q6P3R8); competitive binding panel; relative to: vehicle: 89%
MAP3K14 (Homo sapiens, UniProt Q99558); competitive binding, scanMAX; NIK, 1000 nM: 100%
CDK8 (Homo sapiens, UniProt P49336); competitive binding panel; relative to: vehicle: 100%
CHUK (Homo sapiens, UniProt O15111); competitive binding; IKK-alpha: 50%
MAP2K6 (Homo sapiens, UniProt P52564); competitive binding panel, item: MEK6; relative to: vehicle: 95%
TNNI3K (Homo sapiens, UniProt Q59H18); competitive binding panel; relative to: vehicle: 62%
MAP4K5 (Homo sapiens, UniProt Q9Y4K4); competitive binding panel; relative to: vehicle: 98%
STK39 (Homo sapiens, UniProt Q9UEW8); competitive binding panel; relative to: vehicle: 97%
MAP3K5 (Homo sapiens, UniProt Q99683); competitive binding panel, item: ASK1; relative to: vehicle: 92%

Study 4
Target: DNA polymerase theta, ATPase domain (POLQ, Homo sapiens, UniProt O75417)
Sequence of UniProt O75417 (whole entry, unmodified, looked up): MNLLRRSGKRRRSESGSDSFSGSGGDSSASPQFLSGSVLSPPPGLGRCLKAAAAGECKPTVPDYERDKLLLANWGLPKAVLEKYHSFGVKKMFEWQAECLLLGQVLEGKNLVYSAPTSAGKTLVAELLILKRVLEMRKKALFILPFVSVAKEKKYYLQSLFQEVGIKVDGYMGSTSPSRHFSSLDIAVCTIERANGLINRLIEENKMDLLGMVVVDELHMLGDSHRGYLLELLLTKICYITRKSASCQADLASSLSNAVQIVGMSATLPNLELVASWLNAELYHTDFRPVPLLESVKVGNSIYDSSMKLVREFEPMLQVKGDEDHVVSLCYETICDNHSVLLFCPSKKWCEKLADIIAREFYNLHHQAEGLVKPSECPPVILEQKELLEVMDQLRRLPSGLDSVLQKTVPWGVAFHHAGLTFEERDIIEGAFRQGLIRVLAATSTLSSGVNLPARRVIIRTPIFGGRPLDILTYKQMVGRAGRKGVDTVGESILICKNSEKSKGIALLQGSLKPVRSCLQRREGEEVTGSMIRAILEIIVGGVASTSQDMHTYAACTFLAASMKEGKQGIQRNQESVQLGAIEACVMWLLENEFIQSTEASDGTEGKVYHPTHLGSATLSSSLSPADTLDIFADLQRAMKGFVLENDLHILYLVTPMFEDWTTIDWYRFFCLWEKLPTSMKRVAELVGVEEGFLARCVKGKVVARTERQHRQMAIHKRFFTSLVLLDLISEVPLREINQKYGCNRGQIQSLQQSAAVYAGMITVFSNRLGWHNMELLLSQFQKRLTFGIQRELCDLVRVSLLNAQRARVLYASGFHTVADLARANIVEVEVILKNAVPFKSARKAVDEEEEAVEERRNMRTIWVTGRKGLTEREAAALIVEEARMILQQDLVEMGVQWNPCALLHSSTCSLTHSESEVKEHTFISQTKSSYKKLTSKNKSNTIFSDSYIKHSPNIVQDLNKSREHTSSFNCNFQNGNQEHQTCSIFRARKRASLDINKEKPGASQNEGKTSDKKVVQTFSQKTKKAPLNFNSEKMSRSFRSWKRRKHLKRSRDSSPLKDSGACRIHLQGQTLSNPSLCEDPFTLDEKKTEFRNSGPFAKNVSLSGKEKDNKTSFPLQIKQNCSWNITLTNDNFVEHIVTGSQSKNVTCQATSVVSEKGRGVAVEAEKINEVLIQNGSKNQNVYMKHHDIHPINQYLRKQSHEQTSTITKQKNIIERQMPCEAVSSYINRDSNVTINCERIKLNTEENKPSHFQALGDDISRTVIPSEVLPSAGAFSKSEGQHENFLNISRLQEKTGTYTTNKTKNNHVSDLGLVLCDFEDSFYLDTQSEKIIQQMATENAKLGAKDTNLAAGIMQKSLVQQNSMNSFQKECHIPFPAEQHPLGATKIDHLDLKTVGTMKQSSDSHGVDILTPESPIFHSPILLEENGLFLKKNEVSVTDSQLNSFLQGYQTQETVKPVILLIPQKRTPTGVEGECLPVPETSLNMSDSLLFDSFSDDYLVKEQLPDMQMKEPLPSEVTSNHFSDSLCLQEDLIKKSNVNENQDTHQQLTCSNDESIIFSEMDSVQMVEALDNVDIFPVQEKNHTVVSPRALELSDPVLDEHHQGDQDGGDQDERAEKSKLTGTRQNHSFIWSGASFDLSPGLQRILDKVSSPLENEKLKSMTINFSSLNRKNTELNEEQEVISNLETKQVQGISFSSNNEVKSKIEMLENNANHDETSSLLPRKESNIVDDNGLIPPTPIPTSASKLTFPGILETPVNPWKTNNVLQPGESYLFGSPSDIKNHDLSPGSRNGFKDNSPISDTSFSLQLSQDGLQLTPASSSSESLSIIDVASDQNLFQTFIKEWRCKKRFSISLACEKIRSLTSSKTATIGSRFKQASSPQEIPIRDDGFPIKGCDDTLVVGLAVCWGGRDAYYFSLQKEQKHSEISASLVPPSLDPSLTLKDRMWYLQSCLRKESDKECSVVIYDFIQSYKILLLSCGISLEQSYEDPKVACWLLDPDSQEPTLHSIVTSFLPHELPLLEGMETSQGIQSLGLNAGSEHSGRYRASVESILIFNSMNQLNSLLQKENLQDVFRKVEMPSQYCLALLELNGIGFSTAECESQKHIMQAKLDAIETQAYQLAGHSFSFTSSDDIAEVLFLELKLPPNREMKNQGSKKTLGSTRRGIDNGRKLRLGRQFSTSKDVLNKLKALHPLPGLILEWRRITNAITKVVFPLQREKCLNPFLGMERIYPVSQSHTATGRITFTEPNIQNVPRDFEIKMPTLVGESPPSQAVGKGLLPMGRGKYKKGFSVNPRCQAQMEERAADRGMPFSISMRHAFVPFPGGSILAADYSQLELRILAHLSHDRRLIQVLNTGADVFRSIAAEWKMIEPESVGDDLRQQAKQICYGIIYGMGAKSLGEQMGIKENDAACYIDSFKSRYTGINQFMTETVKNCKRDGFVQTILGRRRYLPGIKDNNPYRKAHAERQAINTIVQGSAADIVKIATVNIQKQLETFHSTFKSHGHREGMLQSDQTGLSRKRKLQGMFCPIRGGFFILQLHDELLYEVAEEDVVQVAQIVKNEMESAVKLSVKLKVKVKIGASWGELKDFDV
Read-out: enzyme activity
Mode: inhibitor
Tested at: 77 µM
Relative to: untreated
Quantity: remaining activity
CC1(C)O[C@@H]2C[C@H]3[C@@H]4CCC5=CC(=O)C=C[C@]5(C)[C@@]4(F)[C@@H](O)C[C@]3(C)[C@]2(C(=O)CO)O1: 91.3%
Cc1ccc(-n2sc(=O)n(Cc3ccc(F)cc3)c2=O)cc1: 97.4%
COC1=CC(=O)C[C@@H](C)[C@]12Oc1c(Cl)c(OC)cc(OC)c1C2=O: 101% and 103%
CN(C)c1ccc(-c2nc3ncc(Cl)c(N4CCN(CC(=O)Nc5nccs5)CC4)c3[nH]2)cc1: 99.3%
NC1CCN(O)C1=O (stereo not drawn): 94.1%
CC(=O)N[C@@H](C(=O)O)C(C)(C)SN=O: 103%
COc1ccc(CN2CCN(C(c3ccc(F)cc3)c3ccc(F)cc3)CC2)c(OC)c1OC: 102%
O=C(Nc1ccc2c(c1)CCN(Cc1ncn[nH]1)C2)c1ccccc1-c1ccc(C(F)(F)F)cc1: 98.5%

Some of these lines once more (study 4):
COC1=CC(=O)C[C@@H](C)[C@]12Oc1c(Cl)c(OC)cc(OC)c1C2=O: 101% and 103%
Cc1ccc(-n2sc(=O)n(Cc3ccc(F)cc3)c2=O)cc1: 97.4%
CC1(C)O[C@@H]2C[C@H]3[C@@H]4CCC5=CC(=O)C=C[C@]5(C)[C@@]4(F)[C@@H](O)C[C@]3(C)[C@]2(C(=O)CO)O1: 91.3%
